Assay results pooled from the literature.
A part holds a random share of what one study measured. Substitutions count along the parent as printed.

Study 1 — technique: protein binding microarray; form: double-stranded DNA, one strand shown; sample: in vitro; tested at: not given; baseline: not given; reading: higher = stronger binding
Target: Histone acetyltransferase KAT6A, winged helix 2, GST fusion (KAT6A, Homo sapiens, UniProt Q92794, residues 85-181)
Notes: 8-mer, flanks averaged, mean of 2 arrays, mostly near background
Residues (chain): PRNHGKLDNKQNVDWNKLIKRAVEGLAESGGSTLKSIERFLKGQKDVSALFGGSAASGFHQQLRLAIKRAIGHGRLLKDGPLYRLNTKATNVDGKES
| Strand | E-score |
| --- | --- |
| AATTTGGC | -0.0616 |
| AGCGGACC | 0.0427 |
| AGAGCCTG | 0.0582 |
| CAGATTGG | 0.00438 |
| GTGGATCA | 0.0127 |
| AGCCACAC | 0.0357 |
| ATTTTAAC | -0.154 |
| ACATGCGG | -0.118 |
| CCCACCGC | 0.163 |
| ATTGAATG | 0.0183 |
| AACCACCC | -0.062 |
| CATTGGCC | -0.239 |
| GTCGAAAA | 0.0486 |
| AGGGACAA | 0.0228 |
| CTTTGACA | -0.0241 |
| AAGCGAGC | 0.183 |

Study 2 — technique: DHFR PCA, deep sequencing; sample: yeast; together with: (+)-ABA 710 µM; baseline: wild-type fitted maximum; reading: higher = stronger binding
Target: ABI1, truncated, D143A, DHFR fusion (Arabidopsis thaliana)
Notes: methotrexate growth selection, single substitutions
Parent: PYL1, truncated, DHFR fusion (Arabidopsis thaliana); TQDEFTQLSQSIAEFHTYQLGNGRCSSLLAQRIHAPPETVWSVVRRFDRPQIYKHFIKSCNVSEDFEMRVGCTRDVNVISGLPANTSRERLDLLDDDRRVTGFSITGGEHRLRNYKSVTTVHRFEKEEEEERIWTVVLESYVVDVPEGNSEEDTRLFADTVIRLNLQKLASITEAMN
| Change | relative binding score [%] |
| --- | --- |
| R132M | 106 |
| R98W | 52.1 |
| V137G | 0.967 |
| R69E | 89.4 |
| E174K | 92.9 |
| S42K | 111 |
| G81Y | 34.1 |
| S171Y | 94.1 |
| V44S | 40.2 |
| D96G | 77.5 |

Study 3 — target: CCNA2, cyclin fold, Cln2 fusion (human); technique: yeast growth competition, sequencing; sample: yeast; notes: strong parent motif; baseline: not given; reading: higher = stronger binding
Parent: PKN2 docking peptide (human); VSAVRKLDFSDTM; partner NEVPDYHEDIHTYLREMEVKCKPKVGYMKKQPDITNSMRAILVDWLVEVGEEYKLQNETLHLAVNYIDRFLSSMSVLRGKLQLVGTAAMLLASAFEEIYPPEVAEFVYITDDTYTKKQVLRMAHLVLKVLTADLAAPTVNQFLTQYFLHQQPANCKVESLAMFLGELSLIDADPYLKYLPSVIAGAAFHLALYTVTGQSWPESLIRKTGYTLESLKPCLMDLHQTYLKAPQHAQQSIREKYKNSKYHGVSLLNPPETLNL
| Change | normalised enrichment score |
| --- | --- |
| R5K | 4.52 |
| L7V | 0.509 |
| F9C | -0.112 |
| L7M | 0.581 |
| D11M | 4.92 |
| D11E | 4.94 |
| L7H | 0.257 |
| A3I | 5.12 |
| D8Q | 5.05 |
| V4Q | 5.5 |
| V4C | 5.45 |
| R5Y | 0.514 |
| D8T | 4.82 |
| F9V | 0.545 |
| L7Y | 0.0587 |
| D8R | 4.35 |
| T12R | 5.5 |

Study 4 — technique: RNA Bind-n-Seq; form: RNA; sample: in vitro; tested at: 365 nM; baseline: no-protein control; reading: higher = stronger binding
Target: RNA binding protein fox-1 homolog 2, RRM domain, GST-SBP tag (RBFOX2, Homo sapiens, UniProt O43251-10, residues 100-194)
Notes: natural RNA segment, single round, ends assumed
Shared flanks, not repeated: GGGAGUUCUACAGUCCGACGAUC … UGGAAUUCUCGGGUGCCAA
Target sequence (chain): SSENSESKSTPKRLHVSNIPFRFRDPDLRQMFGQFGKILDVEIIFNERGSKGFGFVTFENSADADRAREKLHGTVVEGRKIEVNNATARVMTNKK
| Strand | RBNS enrichment (R) |
| --- | --- |
| GAAAACAGUUGGGUUUUGUUCAACCUACUGUAAGCUCUGGUGUAUGUUCUCAAGGCUAAUUUAUCUGAGCCACAGUUCAAGAGAGGAAGGAGCCUGGGGAGGUCAUGUCC | 0.595 |
| GGCGCCUCGGAGCCAAUGUUGAGCCUUGAAGUUCAAAGGAAGAAGUAGCCAAAUCUUUUUCUAAUAAACUCAAUGUUCAGCUCCUCUGUGUUUAAGUUCUCGUAUCCUUG | 0.208 |
| AAACAGUGUGGCAUGCCAACAUCUCUAUAGUGAUUUUUACACGUGAUGUAUUCGGUGUAGCUGAGGUCACUUUGGAAGUCUGUGGCUGUUCCAUGUCCUAGGCAAGCCAC | 9.26 |
| GGGGAUUGACAGGUUUCAUCAUCGGAUAGACAUUUGGUUAUCCAGAGAGAAUUGGUAAUUUGCCAGCGUAAGGGACCCAAAGCCACCAGUGAGUACAUGCCCCAGAGAUG | 0.544 |
| CUUUAAUUAUUUUUUUCAAUUUCAAGUUUAAUUUUAUUUUAGCUGAUCUGAUGUGGUUUCAACUAACCCAAGGUCUCACCAUGUUAAAAUGCCGGCGGACUCUACGGCGU | 0.329 |
| GUGUCCUCGAGGUUGAGCUUCACUCCACUGCGGCAGAGGCAGCGUGCACACUCGGAUUUGCUACGUUUCUAUAUAUCUUGAAGCUAAAUGUAUAUAUGAGUAGUUUGCCA | 0.54 |
| UGAAAAUCCAUUGUUAUCUUAGGGAUUAGUUUUGAAAAGCCCCCGUUUAUAUACAUUUGCCCUAACAUAGGAAGUAUUGUGUAGUUUCUCAUUGUCAUUUUAUCUGUAUC | 0.623 |
| UAUAUUAUAUAUAUAUAUUUUUAAGGUGAAAUACUAAACACUACUUCCUGUCUAUUGAUCUGUAAAAUUAUCAUGUAAAUGUUCUACCAAUUGGCUGUAUAUUUUUGUUG | 0.627 |
| UAAGAAAUAAGAAUUCCCAGGGUUACUCACCCAUGCGUAAGCUACCCAAGUUUAAUUUGGUAGCUGAAAUAUCUUUUUGCCUCAGACAGCUCUUGAAUUGCUCAUACAGA | 0.333 |
| GUUGAAGUGGAAUCGUUUCAUCCCAGCCAUGGAGGCCACCAGCAGGAGUGUUCAUGGGGAUGUGGGCGAGGUGGGGCACUUUGAAGGAAUGGCGGUCUGCUGGUGCCCUC | 0.508 |
| GAACUCAGGACCUCUGGGAAAGCAGUCAGUGCUCUUAACCACUGAGCCAUCUCUCCAGCCCCCUAGACCCCCUUUCUUAUCACUCACACAGACACACUGUGUCUUGUGUC | 0.203 |
| UUCGCACAAUGGCAUUUGAACAAGGUGGCAAUCGGUUGGAGUAACAAACUCCCCCUUGCUGCUGCAGUUUCUCCUACCAGAAGUUUUUCUUUUCUUUUUUUAACCCUUAC | 0.558 |

Study 5 — target: UBE2G1 UBC core domain (UniProt P62253); technique: yeast two-hybrid; sample: yeast; notes: mostly zero background; baseline: not given; reading: higher = stronger interaction
B1: RNF182 RING domain (UniProt Q8N6D2); chain AESQASDELECKICYNRYNLKQRKPKVLECCHRVCAKCLYKIIDFGDSPQGVIVCPFCRFETCLPDDEV
B2: VPS8 RING domain (UniProt Q8N3P4); chain TRGLNPKQDYCSICLQQYKRRQEMADEIIVFSCGHLYHSFCLQNKECTVEFEGQTRWTCYKCSSSNKVGKLSE
B3: MKRN3 RING domain (UniProt Q13064); chain FAVQRGMDKVCGICMEVVYEKANPNDRRFGILSNCNHSFCIRCIRRWRSARQFENRIVKSCPQCRVTSELVIPSE
B4: HLTF RING domain (UniProt Q14527); chain LILSSGSDEECAICLDSLTVPVITHCAHVFCKPCICQVIQNEQPHAKCPLCRNDIHEDNLLE
B5: RNF186 RING domain (UniProt Q9NXI6); chain HSGSTECDLECLVCREPYSCPRLPKLLACQHAFCAICLKLLLCVQDNTWSITCPLCRKVTAVPGGLI
B6: MARCHF1 RING domain (UniProt Q8TCQ1); chain TAPRSQSRLSVCPSTQDICRICHCEGDEESPLITPCRCTGTLRFVHQSCLHQWIKSSDTRCCELCKYDFIMETKLKPLRKWE
B7: RNF103 RING domain (UniProt O00237); chain WPADMLHCTECVVCLENFENGCLLMGLPCGHVFHQNCIVMWLAGGRHCCPVCRWPSYKKKQPY
B8: NFX1 RING domain (UniProt Q12986); chain IEQLTTEKYECMVCCELVRVTAPVWSCQSCYHVFHLNCIKKWARSPASQADGQSGWRCPACQNVSAHVPNTY
Residues (chain): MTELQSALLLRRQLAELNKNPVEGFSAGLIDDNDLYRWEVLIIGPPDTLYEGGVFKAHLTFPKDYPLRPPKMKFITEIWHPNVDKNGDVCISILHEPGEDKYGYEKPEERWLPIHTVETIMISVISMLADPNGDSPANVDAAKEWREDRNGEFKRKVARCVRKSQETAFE
| Molecule | lacZ reporter activity |
| --- | --- |
| FAEQPSVKLCCQLCCSVFKDPVITTCGHTFCRRCALKSEKCPVDNVKLTVVVNNI (TRAF7 RING domain (UniProt Q6Q0C0)) | 0 |
| B1 (RNF182 RING domain) | 0 |
| B2 (VPS8 RING domain) | 0 |
| B3 (MKRN3 RING domain) | 0 |
| B4 (HLTF RING domain) | 0 |
| B5 (RNF186 RING domain) | 0 |
| B6 (MARCHF1 RING domain) | 0 |
| DDVLTKDAGECVICLEELLQGDTIARLPCLCIYHKSCIDSWFEVNRSCPEHPAD (ZNRF1 RING domain (UniProt Q8ND25)) | 0 |
| LEALSSDFLACKICLEQLRAPKTLPCLHTYCQDCLAQLADGGRVRCPECRETVPVPPEGV (TRIM56 RING domain (UniProt Q9BRZ2)) | 0 |
| B7 (RNF103 RING domain) | 0 |
| B8 (NFX1 RING domain) | 0 |

Excerpt of the above (study 1):
| Strand | E-score |
| --- | --- |
| GTGGATCA | 0.0127 |
| AGCGGACC | 0.0427 |
| GTCGAAAA | 0.0486 |
| AGAGCCTG | 0.0582 |
| ATTTTAAC | -0.154 |
| CTTTGACA | -0.0241 |
